Measured values pooled from the literature.
Protocols differ between the studies behind these lines. “And” joins repeats or separate records; there may be more than shown.
Uncharacterized hydrolase SAUSA300_2518: Uncharacterized hydrolase SAUSA300_2518 (Staphylococcus aureus, UniProt Q2FDS6)
Sequence of UniProt Q2FDS6 (whole entry, looked up): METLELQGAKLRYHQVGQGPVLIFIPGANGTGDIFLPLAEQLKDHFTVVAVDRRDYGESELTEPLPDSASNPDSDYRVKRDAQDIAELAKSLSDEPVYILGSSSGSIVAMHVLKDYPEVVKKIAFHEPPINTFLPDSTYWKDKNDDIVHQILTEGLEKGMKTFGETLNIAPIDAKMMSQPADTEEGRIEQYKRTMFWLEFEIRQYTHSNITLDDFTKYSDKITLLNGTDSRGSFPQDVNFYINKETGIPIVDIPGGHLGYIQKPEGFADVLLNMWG
Sequence of UniProt P23443 (whole entry, looked up): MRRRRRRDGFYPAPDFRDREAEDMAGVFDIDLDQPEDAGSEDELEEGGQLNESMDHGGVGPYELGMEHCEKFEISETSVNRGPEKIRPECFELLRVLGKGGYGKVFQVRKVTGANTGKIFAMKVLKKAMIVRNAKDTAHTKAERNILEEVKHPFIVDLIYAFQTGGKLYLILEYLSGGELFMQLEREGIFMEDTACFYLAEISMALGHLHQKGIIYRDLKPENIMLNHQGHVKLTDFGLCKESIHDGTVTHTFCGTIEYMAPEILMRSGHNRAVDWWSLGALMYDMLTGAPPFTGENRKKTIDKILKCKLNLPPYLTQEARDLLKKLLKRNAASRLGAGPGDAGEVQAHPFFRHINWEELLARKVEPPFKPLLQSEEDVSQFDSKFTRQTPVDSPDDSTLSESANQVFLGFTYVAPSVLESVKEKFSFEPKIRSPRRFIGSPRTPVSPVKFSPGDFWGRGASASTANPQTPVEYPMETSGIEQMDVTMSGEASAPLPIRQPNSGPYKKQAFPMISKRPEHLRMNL
Sequence of UniProt P54578 (whole entry, looked up): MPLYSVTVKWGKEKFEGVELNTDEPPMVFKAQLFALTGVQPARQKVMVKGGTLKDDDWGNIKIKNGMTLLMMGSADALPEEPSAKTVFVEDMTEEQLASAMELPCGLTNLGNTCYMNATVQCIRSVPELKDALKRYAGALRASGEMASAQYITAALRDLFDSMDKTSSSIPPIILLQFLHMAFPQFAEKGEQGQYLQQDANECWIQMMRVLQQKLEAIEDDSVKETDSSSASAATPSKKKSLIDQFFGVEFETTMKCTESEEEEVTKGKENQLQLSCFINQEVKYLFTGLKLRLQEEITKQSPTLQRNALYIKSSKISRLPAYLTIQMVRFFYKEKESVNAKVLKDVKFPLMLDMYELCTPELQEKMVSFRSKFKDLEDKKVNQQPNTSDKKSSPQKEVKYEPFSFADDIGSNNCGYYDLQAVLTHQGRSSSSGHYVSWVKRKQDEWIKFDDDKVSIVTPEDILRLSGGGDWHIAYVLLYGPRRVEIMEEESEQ
Sequence of UniProt P03114 (whole entry, looked up): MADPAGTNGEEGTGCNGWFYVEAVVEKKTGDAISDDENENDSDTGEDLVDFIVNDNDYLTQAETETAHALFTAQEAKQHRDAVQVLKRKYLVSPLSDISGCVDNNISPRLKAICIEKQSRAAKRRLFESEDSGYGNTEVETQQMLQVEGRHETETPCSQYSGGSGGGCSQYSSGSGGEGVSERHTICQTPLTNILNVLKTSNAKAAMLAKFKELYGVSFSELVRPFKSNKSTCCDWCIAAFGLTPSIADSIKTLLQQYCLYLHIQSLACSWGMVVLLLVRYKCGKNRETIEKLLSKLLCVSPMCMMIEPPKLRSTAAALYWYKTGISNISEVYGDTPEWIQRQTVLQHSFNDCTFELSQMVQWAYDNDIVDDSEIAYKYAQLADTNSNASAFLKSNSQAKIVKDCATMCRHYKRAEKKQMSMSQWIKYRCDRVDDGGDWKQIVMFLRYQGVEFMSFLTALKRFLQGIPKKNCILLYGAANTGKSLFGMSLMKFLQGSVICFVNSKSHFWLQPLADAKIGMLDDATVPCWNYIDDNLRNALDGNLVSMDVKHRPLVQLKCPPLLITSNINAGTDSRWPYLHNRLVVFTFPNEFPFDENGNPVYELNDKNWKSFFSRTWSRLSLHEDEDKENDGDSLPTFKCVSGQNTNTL
Sequence of UniProt P53350 (whole entry, looked up): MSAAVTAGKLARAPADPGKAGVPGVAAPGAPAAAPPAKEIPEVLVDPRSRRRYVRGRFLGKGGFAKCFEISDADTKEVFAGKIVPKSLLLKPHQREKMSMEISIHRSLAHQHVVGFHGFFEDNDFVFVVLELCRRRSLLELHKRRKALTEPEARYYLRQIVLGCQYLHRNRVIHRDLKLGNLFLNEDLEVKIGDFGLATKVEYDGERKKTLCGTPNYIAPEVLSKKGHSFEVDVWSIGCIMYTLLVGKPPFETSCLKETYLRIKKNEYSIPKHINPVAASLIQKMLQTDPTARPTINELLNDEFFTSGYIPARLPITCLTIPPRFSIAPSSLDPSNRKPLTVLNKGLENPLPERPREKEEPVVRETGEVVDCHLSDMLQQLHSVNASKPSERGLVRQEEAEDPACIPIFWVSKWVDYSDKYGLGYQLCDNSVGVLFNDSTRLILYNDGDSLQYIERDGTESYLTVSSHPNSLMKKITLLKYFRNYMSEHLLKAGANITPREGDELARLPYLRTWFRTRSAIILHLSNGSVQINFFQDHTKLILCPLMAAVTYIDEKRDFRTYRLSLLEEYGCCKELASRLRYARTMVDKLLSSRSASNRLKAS
Sequence of UniProt Q6PJP8 (whole entry, looked up): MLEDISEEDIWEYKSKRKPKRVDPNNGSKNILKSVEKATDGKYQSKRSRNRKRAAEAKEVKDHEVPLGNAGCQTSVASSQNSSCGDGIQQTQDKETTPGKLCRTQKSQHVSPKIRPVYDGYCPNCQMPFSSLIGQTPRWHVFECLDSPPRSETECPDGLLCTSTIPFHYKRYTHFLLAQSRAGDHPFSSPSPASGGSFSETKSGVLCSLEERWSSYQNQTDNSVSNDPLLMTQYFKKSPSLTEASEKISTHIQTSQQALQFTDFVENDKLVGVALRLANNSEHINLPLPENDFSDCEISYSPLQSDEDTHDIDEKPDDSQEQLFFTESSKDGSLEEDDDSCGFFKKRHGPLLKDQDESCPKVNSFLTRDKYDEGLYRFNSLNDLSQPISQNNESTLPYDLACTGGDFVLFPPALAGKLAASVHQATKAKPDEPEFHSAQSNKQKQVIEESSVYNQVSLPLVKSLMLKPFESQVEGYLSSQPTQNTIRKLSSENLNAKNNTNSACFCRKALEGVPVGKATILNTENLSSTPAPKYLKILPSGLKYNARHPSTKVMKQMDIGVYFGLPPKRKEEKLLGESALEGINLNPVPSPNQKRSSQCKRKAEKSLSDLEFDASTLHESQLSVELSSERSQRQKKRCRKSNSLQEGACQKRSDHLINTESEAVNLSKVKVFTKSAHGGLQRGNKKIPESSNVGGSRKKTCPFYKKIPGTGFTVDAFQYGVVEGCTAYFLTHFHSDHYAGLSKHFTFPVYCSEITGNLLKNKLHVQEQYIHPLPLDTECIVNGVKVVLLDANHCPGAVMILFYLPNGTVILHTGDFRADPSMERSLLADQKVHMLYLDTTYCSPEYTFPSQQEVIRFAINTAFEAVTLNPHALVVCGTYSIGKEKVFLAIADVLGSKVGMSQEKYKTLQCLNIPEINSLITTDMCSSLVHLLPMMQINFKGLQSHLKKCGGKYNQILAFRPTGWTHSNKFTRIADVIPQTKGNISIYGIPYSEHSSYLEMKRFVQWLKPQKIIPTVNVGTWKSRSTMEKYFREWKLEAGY
Sequence of UniProt P21802 (whole entry, looked up): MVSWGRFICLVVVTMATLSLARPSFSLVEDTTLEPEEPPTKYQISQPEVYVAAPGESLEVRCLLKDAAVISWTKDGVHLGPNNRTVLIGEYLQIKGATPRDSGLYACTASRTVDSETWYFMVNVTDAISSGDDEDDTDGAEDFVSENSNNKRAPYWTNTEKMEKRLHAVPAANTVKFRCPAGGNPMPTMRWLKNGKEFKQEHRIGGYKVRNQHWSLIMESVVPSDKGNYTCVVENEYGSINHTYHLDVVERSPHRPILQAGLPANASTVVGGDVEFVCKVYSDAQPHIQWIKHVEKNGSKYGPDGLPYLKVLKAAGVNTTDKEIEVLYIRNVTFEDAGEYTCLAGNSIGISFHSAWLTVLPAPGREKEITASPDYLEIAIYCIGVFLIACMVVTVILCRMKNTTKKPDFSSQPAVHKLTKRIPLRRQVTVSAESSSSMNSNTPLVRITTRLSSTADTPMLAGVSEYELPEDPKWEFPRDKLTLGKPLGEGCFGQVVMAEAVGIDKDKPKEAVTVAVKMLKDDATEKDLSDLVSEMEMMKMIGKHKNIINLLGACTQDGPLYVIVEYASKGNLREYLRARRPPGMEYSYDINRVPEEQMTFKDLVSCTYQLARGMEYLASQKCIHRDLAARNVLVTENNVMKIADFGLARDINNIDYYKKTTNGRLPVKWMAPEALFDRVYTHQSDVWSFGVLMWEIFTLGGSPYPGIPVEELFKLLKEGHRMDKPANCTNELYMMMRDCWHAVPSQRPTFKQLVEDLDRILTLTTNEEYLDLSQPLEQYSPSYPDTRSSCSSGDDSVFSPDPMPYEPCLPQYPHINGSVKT

| Compound | target | assay | conditions | how to read | remaining activity |
| --- | --- | --- | --- | --- | --- |
| O=S(=O)(F)c1cccc2c1OCC2 | Uncharacterized hydrolase SAUSA300_2518 | enzyme activity, inhibitor, fluorogenic substrate | 10 µM |  | 110% and 105% |
| CO[C@@H]1[C@@H](OC(=O)c2ccc(C)[nH]2)[C@@H](O)[C@H](Oc2ccc3c(O)c(NC(=O)c4c[nH]c(C(=O)Nc5c(O)c6ccc(O[C@@H]7OC(C)(C)[C@H](OC)[C@@H](OC(=O)c8ccc(C)[nH]8)[C@H]7O)c(C)c6oc5=O)c4C)c(=O)oc3c2C)OC1(C)C | Replication protein E1, helicase domain (E1, Human papillomavirus type 16, UniProt P03114) | fork unwinding | 500 µM |  | 0% |
| Cc1ccc(OS(=O)(=O)F)c(C(=O)Nc2ccncc2)c1 | Uncharacterized hydrolase SAUSA300_2518 | enzyme activity, inhibitor, fluorogenic substrate | 5 µM |  | 50.4% and 50.9% and 52.6% |
| O=C1NC(=O)c2c1c1cc(F)c[n+]3c1c1c2c2cc(O)ccc2[n]1[Ru-4]312([N]=C=S)[S+]3CC[S+]1CC[S+]2CC3 (stereo not drawn) | FGFR2 (Homo sapiens, UniProt P21802) | enzyme activity | 100 nM, human enzyme, together with: 10 µM ATP | relative to: untreated | 81% |
| CN1CCCN(C(=O)c2ccc(S(=O)(=O)F)cc2)c2ccccc21 | Uncharacterized hydrolase SAUSA300_2518 | enzyme activity, inhibitor, fluorogenic substrate | 1 µM |  | 113% and 111% |
| Cc1cccc(-c2ccc3nc(NC(=O)C4CCOCC4)nn3c2)c1 | PLK1 (Homo sapiens, UniProt P53350) | enzyme activity | 10 µM |  | 52% |
| Cc1ccc(N2CC3CCC(C2)N3C)cc1C(=O)N[C@H](C)c1cc(-c2cnn(C)c2)nc2ccccc12 | USP14 (Homo sapiens, UniProt P54578) | enzyme activity | 30 µM |  | 96.4% |
| NC(Cc1cc(O)c(O)cc1O)C(=O)O (racemic) | DCLRE1A (Homo sapiens, UniProt Q6PJP8) | exonuclease activity, inhibitor, fluorescence HTS | 10 µM, 80 min, together with: 8 nM 5P-FQ substrate |  | 42.7% |
| [CH3][Ti+2][O]C(=O)c1ccc([S][Au][PH](c2ccccc2)(c2ccccc2)c2ccccc2)cc1.c1cc[cH-]c1.c1cc[cH-]c1 | RPS6KB1 (Homo sapiens, UniProt P23443) | kinase activity, HotSpot radiometric | 1 µM, together with: ATP 10 µM | relative to: vehicle | 98.4% and 99% |

Repeated from above:
| Compound | target | assay | conditions | how to read | remaining activity |
| --- | --- | --- | --- | --- | --- |
| O=C1NC(=O)c2c1c1cc(F)c[n+]3c1c1c2c2cc(O)ccc2[n]1[Ru-4]312([N]=C=S)[S+]3CC[S+]1CC[S+]2CC3 (stereo not drawn) | FGFR2 (Homo sapiens, UniProt P21802) | enzyme activity | 100 nM, human enzyme, together with: 10 µM ATP | relative to: untreated | 81% |
